Assay results pooled from the literature.
Lines come from different studies, so protocols differ. “And” joins repeats or separate records; there may be more than shown. Numbers after ± are the reported error.
Abhydrolase domain-containing protein 11: Abhydrolase domain-containing protein 11 (Rattus norvegicus, UniProt D3ZXK4)
UniProt P06276, sequence (whole entry, looked up): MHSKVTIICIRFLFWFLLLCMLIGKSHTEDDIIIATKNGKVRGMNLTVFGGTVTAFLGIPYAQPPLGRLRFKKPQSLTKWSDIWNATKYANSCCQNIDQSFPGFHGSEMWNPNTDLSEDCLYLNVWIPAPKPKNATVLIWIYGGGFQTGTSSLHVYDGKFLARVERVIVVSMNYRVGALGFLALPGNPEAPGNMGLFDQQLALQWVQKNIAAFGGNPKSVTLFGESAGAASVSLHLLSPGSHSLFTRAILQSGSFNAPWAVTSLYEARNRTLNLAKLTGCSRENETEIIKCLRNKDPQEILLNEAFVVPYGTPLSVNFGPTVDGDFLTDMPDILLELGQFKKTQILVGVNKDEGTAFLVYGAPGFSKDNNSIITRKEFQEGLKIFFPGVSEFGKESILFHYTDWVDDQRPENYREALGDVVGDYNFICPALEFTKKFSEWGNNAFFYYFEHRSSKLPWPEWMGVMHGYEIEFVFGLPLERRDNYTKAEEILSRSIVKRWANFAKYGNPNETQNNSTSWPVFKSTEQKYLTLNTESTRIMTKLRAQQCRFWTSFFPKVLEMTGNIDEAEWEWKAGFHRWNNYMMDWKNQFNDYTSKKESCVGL
UniProt Q62351, sequence (whole entry, looked up): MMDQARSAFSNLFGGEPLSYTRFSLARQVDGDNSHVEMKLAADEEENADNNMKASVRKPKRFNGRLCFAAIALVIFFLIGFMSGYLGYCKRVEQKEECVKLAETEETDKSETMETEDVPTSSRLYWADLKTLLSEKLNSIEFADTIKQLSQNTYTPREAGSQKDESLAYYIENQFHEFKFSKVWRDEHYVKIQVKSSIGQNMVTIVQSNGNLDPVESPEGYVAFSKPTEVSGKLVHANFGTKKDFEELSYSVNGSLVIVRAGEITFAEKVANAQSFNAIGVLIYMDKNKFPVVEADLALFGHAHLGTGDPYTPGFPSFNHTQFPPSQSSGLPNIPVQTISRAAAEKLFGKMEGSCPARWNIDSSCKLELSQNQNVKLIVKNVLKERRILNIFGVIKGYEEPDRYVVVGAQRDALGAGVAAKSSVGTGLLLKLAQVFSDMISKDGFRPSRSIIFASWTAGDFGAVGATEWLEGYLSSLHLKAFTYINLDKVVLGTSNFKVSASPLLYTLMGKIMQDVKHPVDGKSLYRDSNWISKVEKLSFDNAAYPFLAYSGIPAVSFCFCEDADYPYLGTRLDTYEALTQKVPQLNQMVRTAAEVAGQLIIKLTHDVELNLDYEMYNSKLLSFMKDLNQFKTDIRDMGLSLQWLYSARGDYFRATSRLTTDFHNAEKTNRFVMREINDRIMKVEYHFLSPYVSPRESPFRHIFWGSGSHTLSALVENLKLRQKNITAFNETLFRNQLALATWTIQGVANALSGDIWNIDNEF
UniProt O75385, sequence (whole entry, looked up): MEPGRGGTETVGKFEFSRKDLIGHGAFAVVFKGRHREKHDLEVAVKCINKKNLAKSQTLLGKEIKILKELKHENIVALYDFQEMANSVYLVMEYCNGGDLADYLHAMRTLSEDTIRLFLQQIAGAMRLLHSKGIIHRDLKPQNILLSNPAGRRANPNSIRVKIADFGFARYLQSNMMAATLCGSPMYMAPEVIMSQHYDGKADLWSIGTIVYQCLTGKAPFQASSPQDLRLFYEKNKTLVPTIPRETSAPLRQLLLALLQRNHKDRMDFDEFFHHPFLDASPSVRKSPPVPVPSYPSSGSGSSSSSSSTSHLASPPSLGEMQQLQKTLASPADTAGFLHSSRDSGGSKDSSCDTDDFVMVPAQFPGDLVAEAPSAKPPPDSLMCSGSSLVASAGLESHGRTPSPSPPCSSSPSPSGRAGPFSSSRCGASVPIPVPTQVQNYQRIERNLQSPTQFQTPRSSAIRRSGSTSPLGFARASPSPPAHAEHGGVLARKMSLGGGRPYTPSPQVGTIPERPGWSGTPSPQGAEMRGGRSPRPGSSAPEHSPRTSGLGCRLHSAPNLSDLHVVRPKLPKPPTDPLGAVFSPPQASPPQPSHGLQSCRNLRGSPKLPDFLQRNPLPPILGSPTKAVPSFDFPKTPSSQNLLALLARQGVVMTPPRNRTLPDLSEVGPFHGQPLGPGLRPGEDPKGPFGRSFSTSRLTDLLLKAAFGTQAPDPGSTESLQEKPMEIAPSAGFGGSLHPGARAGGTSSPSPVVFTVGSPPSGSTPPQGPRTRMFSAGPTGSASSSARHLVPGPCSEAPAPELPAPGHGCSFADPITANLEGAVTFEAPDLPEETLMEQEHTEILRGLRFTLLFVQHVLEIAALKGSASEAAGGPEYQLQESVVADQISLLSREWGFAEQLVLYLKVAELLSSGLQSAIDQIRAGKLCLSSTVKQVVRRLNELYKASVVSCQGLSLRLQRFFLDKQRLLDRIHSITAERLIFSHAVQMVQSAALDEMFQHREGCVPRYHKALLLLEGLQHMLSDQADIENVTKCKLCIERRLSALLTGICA
UniProt Q15418, sequence (whole entry, looked up): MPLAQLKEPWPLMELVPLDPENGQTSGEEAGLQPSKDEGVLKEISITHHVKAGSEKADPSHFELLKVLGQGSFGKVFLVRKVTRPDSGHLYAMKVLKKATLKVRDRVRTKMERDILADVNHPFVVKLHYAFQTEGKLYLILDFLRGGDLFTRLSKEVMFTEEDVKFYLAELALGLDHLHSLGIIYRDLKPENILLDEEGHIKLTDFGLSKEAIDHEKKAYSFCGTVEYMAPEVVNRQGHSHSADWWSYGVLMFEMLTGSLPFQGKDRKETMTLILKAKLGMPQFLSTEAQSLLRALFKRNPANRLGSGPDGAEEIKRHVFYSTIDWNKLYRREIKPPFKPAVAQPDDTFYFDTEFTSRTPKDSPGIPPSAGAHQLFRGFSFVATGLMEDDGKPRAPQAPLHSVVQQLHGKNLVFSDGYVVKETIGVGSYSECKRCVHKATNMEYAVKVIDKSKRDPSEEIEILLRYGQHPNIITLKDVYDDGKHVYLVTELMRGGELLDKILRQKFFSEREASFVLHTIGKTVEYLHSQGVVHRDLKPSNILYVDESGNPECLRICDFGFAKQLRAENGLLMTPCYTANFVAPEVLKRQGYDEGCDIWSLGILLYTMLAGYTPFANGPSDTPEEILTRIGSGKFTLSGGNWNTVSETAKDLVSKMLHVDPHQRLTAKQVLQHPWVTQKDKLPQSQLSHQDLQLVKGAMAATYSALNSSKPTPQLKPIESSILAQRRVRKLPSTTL
UniProt Q05941, sequence (whole entry, looked up): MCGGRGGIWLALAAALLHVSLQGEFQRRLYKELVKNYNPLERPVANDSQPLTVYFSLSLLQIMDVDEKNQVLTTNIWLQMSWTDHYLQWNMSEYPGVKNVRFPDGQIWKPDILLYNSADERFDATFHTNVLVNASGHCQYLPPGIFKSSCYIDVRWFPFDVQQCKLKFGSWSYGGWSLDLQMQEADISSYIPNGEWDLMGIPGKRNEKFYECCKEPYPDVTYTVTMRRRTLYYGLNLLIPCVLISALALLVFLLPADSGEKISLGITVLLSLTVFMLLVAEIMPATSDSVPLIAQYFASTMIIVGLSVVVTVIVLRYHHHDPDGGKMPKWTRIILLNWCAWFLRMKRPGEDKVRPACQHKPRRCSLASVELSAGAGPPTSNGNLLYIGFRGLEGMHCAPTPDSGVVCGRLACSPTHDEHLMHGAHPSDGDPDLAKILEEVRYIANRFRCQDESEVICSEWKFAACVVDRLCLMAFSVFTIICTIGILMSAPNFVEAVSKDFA
UniProt P00915, sequence (whole entry, looked up): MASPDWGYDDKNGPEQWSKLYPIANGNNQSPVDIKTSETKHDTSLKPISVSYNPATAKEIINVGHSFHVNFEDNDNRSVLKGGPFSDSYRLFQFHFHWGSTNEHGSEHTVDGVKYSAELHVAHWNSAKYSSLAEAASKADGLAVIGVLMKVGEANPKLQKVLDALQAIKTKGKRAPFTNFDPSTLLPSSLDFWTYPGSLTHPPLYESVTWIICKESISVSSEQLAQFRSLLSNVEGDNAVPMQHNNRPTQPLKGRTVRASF
UniProt Q9Y271, sequence (whole entry, looked up): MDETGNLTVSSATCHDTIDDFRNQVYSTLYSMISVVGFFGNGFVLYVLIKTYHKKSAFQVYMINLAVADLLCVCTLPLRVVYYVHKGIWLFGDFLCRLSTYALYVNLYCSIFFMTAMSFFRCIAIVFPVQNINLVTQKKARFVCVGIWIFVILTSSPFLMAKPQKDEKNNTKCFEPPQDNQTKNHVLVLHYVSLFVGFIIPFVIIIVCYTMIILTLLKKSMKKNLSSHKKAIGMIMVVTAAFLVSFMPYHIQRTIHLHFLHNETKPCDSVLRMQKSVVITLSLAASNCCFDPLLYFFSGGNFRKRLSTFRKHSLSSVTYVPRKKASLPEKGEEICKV
UniProt D0VWV4, sequence (whole entry, looked up): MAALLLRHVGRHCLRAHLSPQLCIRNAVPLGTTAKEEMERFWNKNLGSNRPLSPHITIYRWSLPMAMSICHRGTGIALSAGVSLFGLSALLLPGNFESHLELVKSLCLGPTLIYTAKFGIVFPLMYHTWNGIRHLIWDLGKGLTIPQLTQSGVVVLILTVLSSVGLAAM
UniProt P81908, sequence (whole entry, looked up): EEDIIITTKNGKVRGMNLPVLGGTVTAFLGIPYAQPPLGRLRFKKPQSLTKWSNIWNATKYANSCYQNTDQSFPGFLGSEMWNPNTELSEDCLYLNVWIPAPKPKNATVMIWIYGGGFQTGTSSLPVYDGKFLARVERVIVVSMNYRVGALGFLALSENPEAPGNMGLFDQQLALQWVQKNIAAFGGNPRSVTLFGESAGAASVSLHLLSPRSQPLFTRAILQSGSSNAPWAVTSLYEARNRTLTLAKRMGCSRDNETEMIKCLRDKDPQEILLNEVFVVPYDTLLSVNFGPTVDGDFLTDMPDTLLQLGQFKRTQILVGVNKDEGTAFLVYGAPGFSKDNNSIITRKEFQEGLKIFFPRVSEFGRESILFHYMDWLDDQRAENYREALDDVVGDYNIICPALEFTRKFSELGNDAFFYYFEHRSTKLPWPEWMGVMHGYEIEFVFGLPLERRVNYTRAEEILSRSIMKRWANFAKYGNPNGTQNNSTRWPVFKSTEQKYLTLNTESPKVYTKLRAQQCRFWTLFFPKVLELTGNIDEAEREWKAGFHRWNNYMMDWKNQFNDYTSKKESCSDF

COc1cc(Nc2ncc(F)c(Nc3ccc4c(n3)NC(=O)C(C)(C)O4)n2)cc(OC)c1OC — inhibition (RPS6KA1 (Homo sapiens, UniProt Q15418); KINOMEscan; 10 µM, RSK1(Kin.Dom.1-N-terminal)): 97%
COc1ccc2c3c([nH]c2c1)CCN(C)CC3.O=C(O)/C=C/C(=O)O — Hill coefficient (Chrna7 (Rattus norvegicus, UniProt Q05941); ion current, inhibitor, two-electrode voltage clamp; Xenopus laevis oocytes, rat; together with: 100 µM acetylcholine): 1.9 ± 0.2
O=C1CN(C(=O)CCn2ccnc2)CC(O)CN1CCc1ccccc1 (stereo not shown) — apparent Vmax (Cholinesterase (BCHE, Homo sapiens, UniProt P06276); inhibitor; 0.25 µM): 0.35 ± 0.01 µM/min
COc1ccc(N2C(=O)N(c3c(C)cccc3Cl)Cc3cnc(Nc4ccc(C5CCN(C)CC5)cc4OC)nc32)nc1 — inhibition (MERTK (Homo sapiens, UniProt Q12866); kinase activity, inhibitor; 0.5 µM, kinase MER): 5%
CN(C(=O)n1cnc(-c2ccc[n+]([O-])c2)c1)C1CCCCC1 — inhibition (Abhydrolase domain-containing protein 11; probe labelling, inhibitor, competitive ABPP with azido-FP probe, item: Abhd11; rat brain soluble fraction; 100 µM): 37.9%
[2H]c1c([2H])c([C@]2([2H])CCCN2C(=O)C(C)(C)Oc2ccc3cn[nH]c3c2)c([2H])c([2H])c1C([2H])([2H])[2H] — remaining binding (ULK1 (Homo sapiens, UniProt O75385); KINOMEscan; 1 µM; baseline: DMSO control): 74%
Oc1ccc(-c2cccc(Cl)c2)cc1Cl — IC25 (Androgen receptor (AR, Homo sapiens, UniProt P10275); reporter gene, antagonist; 24 h, together with: DHT 2 nM): 1 µM
CC(C)(Cc1c[nH]c2ccccc12)NCC(O)COc1ccccc1C#N (stereo not shown) — efficacy (Cholinesterase (BCHE, Homo sapiens, UniProt P06276); concentration not given, Triton): -80 ± 12.8%
NS(=O)(=O)C(F)(F)F — binding free energy (CA1 (Homo sapiens, UniProt P00915); urea denaturation shift, Trp fluorescence; 5 µM, pH 6.0): -9.26 kcal/mol
CC[C@@H](C)[C@@H](NC(=O)[C@@H](Cc1ccc(O)cc1)NC(=O)[C@H]1CCCN1C(=O)[C@@H](CCCNC(=N)N)NC(=O)[C@H](N)Cc1c[nH]cn1)C(=O)N[C@H](C)C(=O)N[C@H](Cc1c[nH]cn1)C(=O)N[C@H](CCCNC(=N)N)C(=O)N[C@H](CCCCNC(=O)c1cccc(S(=O)(=O)F)c1)C(=O)N[C@H](Cc1ccc(O)cc1)C(=O)N[C@H](CO)C(=O)N[C@H](Cc1ccccc1)C(N)=O — surface expression (Transferrin receptor protein 1 (Tfrc, Mus musculus, UniProt Q62351); flow cytometry; DC2.4; 2 h, pH 7.4, unit not given; baseline: 0 h): 0.804 and 0.801
C=C(CN(C(=O)c1c(C(F)F)nn(C)c1F)C1CC1)c1ccc(Cl)cc1Cl — reaction velocity (SDHD/SDHC/SDHB (Sus scrofa, UniProt A5GZW8+D0VWV4+Q007T0); enzyme activity, inhibitor, DCIP reduction; pig; 0.06 µM, together with: DCIP 5 µM): 0.00269 µM/s
CN(C)c1ccc(O)c2c1C[C@H]1C[C@H]3[C@H](N(C)C)C(O)=C(C(N)=O)C(=O)[C@@]3(O)C(O)=C1C2=O — IC50 (Plasmodium falciparum; 7G8): 3.98 µM
CC(C)[N+](C)(C)CC(O)COc1cccc2ccccc12 (stereo not shown) — efficacy (Cholinesterase (BCHE, Homo sapiens, UniProt P06276); concentration not given, Triton): -94.8 ± 9.07%
CC1(C)Cc2c(sc(NC(=O)c3ccn[nH]3)c2C(N)=O)C(C)(C)O1 — maximum current increase (CFTR (Homo sapiens, UniProt P13569, D924R/R347D); channel current, activator, inside-out patch clamp; CHO cells, transfected): 302 ± 62%
O=C(c1ccc(Cl)cc1)N1CCN2C(=O)N(OC(=O)N3CCOc4ccccc43)C(=O)C2C1 (stereo not shown) — median ratio (Cholinesterase (BCHE, Homo sapiens, UniProt P06276); enzyme activity, inhibitor, MS-based ABPP; SW-620 in situ; 10 µM, 2 h, 37 °C; baseline: compound over DMSO, lower = stronger inhibition): 1.02
COc1cc(N)c(Cl)cc1C(=O)NC1CN2CCC1CC2 (stereo not shown) — log2 fold change (Probable G-protein coupled receptor 150 (GPR150, Homo sapiens, UniProt Q8NGU9); β-arrestin recruitment, TANGO luminescence, item: GPR150; concentration not given; baseline: basal luminescence): 0.019
CCOC(=O)COc1ccc2c(=O)c3ccccc3oc2c1 — reaction velocity (ache (Electrophorus electricus, UniProt O42275); enzyme activity; 1.68 µM, together with: substrate 3.45 mM; higher = faster reaction): 0.0029 a.u.
O=C(Nc1cnccc1Cl)N1CCN(Cc2ccc3c(c2)OC(F)(F)O3)CC1 — probe labelling (Protein S100-A16 (Rattus norvegicus, UniProt A0ACM8QDC9); competitive ABPP with azido-FP probe; rat brain membrane fraction; 1 µM, unit not given; baseline: DMSO): -1.1
CN1CCN(c2cc(-c3ccncc3)c(-c3ccc4ccccc4c3)nn2)CC1 — inhibition (CYSLTR1 (Homo sapiens, UniProt Q9Y271); antagonist, FLIPR; 10 µM): 3.1%
C[C@H](CCC(=O)O)[C@H]1CC[C@H]2[C@@H]3CC[C@@H]4C[C@H](O)CC[C@]4(C)[C@H]3CC[C@]12C — delta Tm (MerR family transcriptional regulator (Clostridioides difficile, UniProt Q181I6); differential scanning fluorimetry; 63 µM; decrease): ~5 °C
CC[C@H](C)[C@H](NC(=O)[C@H](Cc1ccccc1)NC(=O)[C@H](CCC(=O)O)NC(=O)[C@H](CCCNC(=N)N)NC(=O)[C@H](C)NC(=O)[C@H](C)NC(=O)[C@H](CCC(N)=O)NC(=O)[C@H](CCC(=O)O)NC(=O)[C@H](CCC(=O)O)NC(=O)[C@H](CC(C)C)NC(=O)[C@H](Cc1ccc(O)cc1)NC(=O)[C@H](CO)NC(=O)[C@H](CO)NC(=O)[C@@H](NC(=O)[C@H](CC(=O)O)NC(=O)[C@H](CO)NC(=O)[C@@H](NC(=O)[C@H](Cc1ccccc1)NC(=O)[C@@H](NC(=O)CNC(=O)[C@H](CCC(=O)O)NC(=O)[C@H](C)NC(=O)CCc1c[nH]cn1)[C@@H](C)O)[C@@H](C)O)C(C)C)C(=O)N[C@@H](C)C(=O)N[C@@H](Cc1c[nH]c2ccccc12)C(=O)N[C@@H](CC(C)C)C(=O)N[C@H](C(=O)N[C@@H](CCCNC(=N)N)C(=O)NCC(=O)N[C@@H](CCCNC(=N)N)C(=O)N[C@@H](CCCCNC(=O)COCCOCCNC(=O)COCCOCCNC(=O)CC[C@H](NC(=O)CCCCCCCCCCCCCCCCC(=O)O)C(=O)O)C(=O)NCC(=O)NCC(=O)N[C@@H](CO)C(=O)N[C@@H](CCCCNc1c(NCCCCCN(O)C(=O)CCC(=O)NCCCCCN(O)C(=O)CCC(=O)NCCCCCN(O)C(C)=O)c(=O)c1=O)C(=O)O)C(C)C — Vz/F (UPLC-MS; rat, plasma; subcutaneous, 20 nmol/kg): 0.167 L/kg
O=C(Nc1cccnn1)N1CCC(=Cc2cccc(Oc3ccc(C(F)(F)F)cn3)c2)CC1 — inhibition (Abhydrolase domain-containing protein 11; probe labelling, inhibitor, competitive ABPP with azido-FP probe, item: Abhd11; rat brain soluble fraction; 0.01 µM): 29.7%
C[C@H]1CN(c2n[nH]c3nc(N[C@H]4CC[C@H](NS(=O)(=O)CCC(F)(F)F)CC4)ncc23)CCO1 — remaining binding (Zinc transporter 7 (Homo sapiens, UniProt Q8NEW0); Kinobeads competition, item: SLC30A7; 0.16 µM, unit not given; baseline: vehicle): 1.01
CC1(C)S[C@@H]2[C@H](NC(=O)Cc3ccccc3)C(=O)N2[C@H]1C(=O)O — kinact/KI (Penicillin-binding protein 1A (pbpA, Streptococcus pneumoniae, UniProt Q8DR59); inhibitor): 70000 ± 20000 M⁻¹ s⁻¹
Nc1cnn(-c2ccccc2)c(=O)c1Cl — EC10 (PPARG (Homo sapiens, UniProt P37231); reporter gene, agonist, β-lactamase reporter; HEK293-H cells; freely dissolved concentration): 28 µM
O=C(O)COP(=O)(O)O — Ki ratio (TPI1 (Saccharomyces cerevisiae, UniProt P00942, Y208S); enzyme activity, competitive inhibitor, GPDH/NADH-coupled; pH 7.5, 25 °C, ionic strength 0.1 NaCl, together with: glyceraldehyde 3-phosphate substrate; baseline: mutant over wild type): 50
CCN(C)C(=O)Oc1ccc(CCC(=O)N2CCc3ccccc3C2)cc1 — selectivity ratio (Cholinesterase (BCHE, Equus caballus, UniProt P81908); Ellman; equine serum BuChE; baseline: AChE IC50 over BuChE IC50): 0.3
Nc1ncnc2c1ncn2[C@@H]1O[C@H](COP(=O)(O)OP(=O)(O)O)[C@@H](O)[C@H]1O — -TΔS (Cell cycle histidine kinase CckA, cytoplasmic region (Caulobacter vibrioides, UniProt Q9X688); binding, ITC; 25 °C, together with: without c-di-GMP): -2.9 kcal/mol
CN(C)[C@@H](CCOc1cccc2ccccc12)c1ccccc1 — efficacy (Cholinesterase (BCHE, Homo sapiens, UniProt P06276); concentration not given, Triton): -89.5 ± 11.2%
C[C@H]1CCCC(=O)CCC/C=C/c2cc(O)cc(O)c2C(=O)O1 — Km (lcc5 (Coprinopsis cinerea, UniProt Q6VMB9); substrate, HPLC; Coprinopsis cinerea, 0.1 M phosphate buffer; pH 7.5, 45 °C, no mediator): 88.5 ± 7.1 µM
CC(C)(C)[C@]1(O)CCN2C[C@H]3c4ccccc4CCc4cccc(c43)[C@@H]2C1 — IC50 (Plasmodium falciparum; 3D7): 3.16 µM
